Published values collected from several papers.
Every numbered part comes from another study and shows a few of its results, in no order. Values joined by “and” are separate records of one study, mostly repeats; a detail may differ.

Set 1 — method: universal PBM; molecule type: double-stranded DNA, one strand shown; medium: in vitro; tested at: 600 nM; reading: higher = stronger binding
Target: Sal-like protein 4, full length isoform A (SALL4, Homo sapiens, UniProt Q9UJQ4, residues 1-1053)
UniProt Q9UJQ4, sequence (whole entry, looked up): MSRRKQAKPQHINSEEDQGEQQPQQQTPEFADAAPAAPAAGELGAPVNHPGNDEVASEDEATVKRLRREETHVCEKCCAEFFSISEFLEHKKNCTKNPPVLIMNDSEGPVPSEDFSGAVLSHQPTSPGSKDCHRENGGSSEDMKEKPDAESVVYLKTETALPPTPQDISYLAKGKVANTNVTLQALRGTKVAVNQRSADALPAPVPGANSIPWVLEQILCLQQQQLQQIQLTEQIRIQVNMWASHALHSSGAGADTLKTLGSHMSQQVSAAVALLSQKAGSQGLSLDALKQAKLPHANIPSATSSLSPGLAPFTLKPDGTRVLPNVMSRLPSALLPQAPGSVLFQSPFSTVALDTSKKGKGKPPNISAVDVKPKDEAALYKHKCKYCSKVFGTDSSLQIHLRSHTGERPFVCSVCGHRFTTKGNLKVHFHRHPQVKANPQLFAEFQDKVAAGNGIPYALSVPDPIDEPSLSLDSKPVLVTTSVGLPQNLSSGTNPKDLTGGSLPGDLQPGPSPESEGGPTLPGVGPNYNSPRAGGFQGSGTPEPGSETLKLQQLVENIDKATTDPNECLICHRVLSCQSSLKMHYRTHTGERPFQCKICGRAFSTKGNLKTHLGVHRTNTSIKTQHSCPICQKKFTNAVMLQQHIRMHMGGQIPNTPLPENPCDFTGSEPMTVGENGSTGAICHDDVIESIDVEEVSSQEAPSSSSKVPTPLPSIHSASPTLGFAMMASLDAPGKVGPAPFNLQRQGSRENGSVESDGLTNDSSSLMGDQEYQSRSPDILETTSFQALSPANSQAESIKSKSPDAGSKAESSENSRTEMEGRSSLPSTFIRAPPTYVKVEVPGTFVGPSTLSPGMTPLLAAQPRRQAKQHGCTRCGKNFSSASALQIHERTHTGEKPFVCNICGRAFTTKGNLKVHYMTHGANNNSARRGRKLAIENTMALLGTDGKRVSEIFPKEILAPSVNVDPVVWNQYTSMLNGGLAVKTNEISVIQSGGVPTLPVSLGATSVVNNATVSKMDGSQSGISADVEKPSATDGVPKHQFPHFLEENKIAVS
Setting: 8-mer, flanks averaged, mean of replicates
| Oligonucleotide | E-score |
| --- | --- |
| CAATCCTC | -0.018 |
| CAGTATCC | -0.0877 |
| CCCCCGCC | -0.364 |
| ACCGATGG | -0.107 |
| GGCGGCTA | -0.197 |
| ACGGCTGG | -0.327 |
| TCAAGTGA | 0.0773 |
| AATAAGAA | 0.338 |

Set 2 — method: RNA Bind-n-Seq; molecule type: RNA; medium: in vitro; tested at: 1 µM; setting: whole 134-nt RNA, ends assumed; together with: 150 mM KCl; reference: input library; reading: higher = stronger binding
Target: Ras GTPase-activating protein-binding protein 1, RRM domain (G3BP1, Homo sapiens, UniProt Q13283)
UniProt Q13283, sequence (whole entry, looked up): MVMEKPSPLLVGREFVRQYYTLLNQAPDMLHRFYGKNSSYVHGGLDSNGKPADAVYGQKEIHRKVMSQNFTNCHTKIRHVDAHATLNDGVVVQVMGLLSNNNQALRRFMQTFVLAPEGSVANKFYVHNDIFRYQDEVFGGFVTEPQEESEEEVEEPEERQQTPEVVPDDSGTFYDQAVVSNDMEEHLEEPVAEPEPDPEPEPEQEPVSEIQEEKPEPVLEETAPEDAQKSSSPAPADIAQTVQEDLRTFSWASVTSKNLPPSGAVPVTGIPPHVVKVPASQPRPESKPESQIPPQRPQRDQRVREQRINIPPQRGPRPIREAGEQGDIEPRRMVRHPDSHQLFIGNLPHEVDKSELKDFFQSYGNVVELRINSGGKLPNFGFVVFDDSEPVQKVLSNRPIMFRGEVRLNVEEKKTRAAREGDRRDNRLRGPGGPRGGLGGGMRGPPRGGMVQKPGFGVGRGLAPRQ
All sequences stand within: GGGAGUUCUACAGUCCGACGAUC … UGGAAUUCUCGGGUGUCAAGG
| Oligonucleotide | log2 enrichment |
| --- | --- |
| AAGUCCUGUGCUACACAUCGUAUGUACCGAAUCGGGUUUUGGGGUUUUGGUUUUGGAAAGUAUUAUGUUACGCCGUUCGGAUCUGCACUU | -0.306 |
| UUCCCCACUUCCUUCCCUCCAGUCCCCACUCACUCACAUGCACACACUAACCUUGGAGCCGAUGGGAUUGAGUGACUGGCACUUGGGACC | 0.523 |
| UGUGCGGGAGACAGGCGCCAACGGCACCUCUUUCAGUGUCCGCAAGACAGCCUACUGCGACAUCCACACGCCUCCAGGUUCAGCACGCCG | -0.342 |
| UGUGCUACACAUCGUAUGUACCGAAUCGGGGUUUUUUUGGGUUUUUUUGGGUUUUUUUGGGGAAAGUAUUAUGUUACGCCGUUCGGAUCU | -0.111 |
| CUGUGCUACACAUCGUAUGUACCGAAUCGGGGAAAAAGGGGUUUUUUUGGGGAAAAAGGGGAAAGUAUUAUGUUACGCCGUUCGGAUCUG | 0.824 |
| UUCUCUUCACUCCCACCAGUGCGGGUGGUCUUUGCAGUGACUAUGGAAGGCAGUGCACGGAAAGUCAUCACUGUCCGGUCAGCCCUCAUU | -0.0618 |
| UGCUGAAGCUCACACCCGUGGACCACCCAGACUGCCUGCCGCUACAGGAUGCCCUCCGCAUCUCCCAGGACUUCUUUCCGGCAUCAGUGU | -0.407 |

Set 3 — method: protein binding microarray; molecule type: double-stranded DNA, one strand shown; medium: in vitro; tested at: not given; reference: not given; reading: higher = stronger binding
Target: Histone acetyltransferase KAT6A, both winged helices, GST fusion (KAT6A, Homo sapiens, UniProt Q92794, residues 1-181)
Setting: 8-mer, flanks averaged, mean of 2 arrays, mostly near background
Target sequence (chain): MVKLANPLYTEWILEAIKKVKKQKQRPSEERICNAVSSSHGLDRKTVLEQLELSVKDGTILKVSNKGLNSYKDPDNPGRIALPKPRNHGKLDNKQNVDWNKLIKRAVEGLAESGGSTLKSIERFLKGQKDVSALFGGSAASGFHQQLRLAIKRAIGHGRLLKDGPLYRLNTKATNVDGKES
| Oligonucleotide | E-score |
| --- | --- |
| GTTTGTAA | -0.0819 |
| CATTGGTA | -0.0484 |
| AGATAGTA | -0.0604 |
| AACAACAT | -0.0728 |
| CATACCGG | 0.21 |
| AGAAATAA | -0.116 |
| GTGAGCAC | -0.0726 |

Further values, each from its own experiment
| Molecule | target | assay | test system | conditions | scale | measurement | value |
| --- | --- | --- | --- | --- | --- | --- | --- |
| PhoQ, residues 284 288 289 292 302 303 SACGEM | PhoP, residues 12 14 15 18 19 LWHCS (Escherichia coli, UniProt P23836) | Sort-seq, measured: YFP reporter | E. coli | PhoQ-PhoP variant library, together with: 10 µM Mg2+ | reference: high Mg2+ state, higher = stronger signaling | fold induction | 9.1 and 19.3 |
